Measured values from different studies.
Lines come from different studies, so protocols differ. Numbers after ± are the reported error.
BRD4 BD1: Bromodomain-containing protein 4, BD1 (BRD4, Homo sapiens, UniProt O60885)
Histone acetyltransferase RTT109 with Vps75: Histone acetyltransferase RTT109, with Vps75 (Saccharomyces cerevisiae, UniProt Q07794)
serine/threonine phosphatase Stp1: serine/threonine phosphatase Stp1 (Staphylococcus aureus, UniProt A0A0H2XF73)
UCHL1: Ubiquitin carboxyl-terminal hydrolase isozyme L1 (UCHL1, Homo sapiens, UniProt P09936)

CSc1ccccc1C(=O)NCCn1cc(C(=O)NCc2cccc(C)n2)c(=O)c2cc3c(cc21)OC(F)(F)O3 — IC50 (Cytochrome P450 2C8 (CYP2C8, Homo sapiens, UniProt P10632); enzyme activity, inhibitor; human liver microsomes; 20 min, 30 min NADPH preincubation, with: amodiaquine 2 µM): > 100 µM
CC#CC(=O)N1CC[C@@H](n2c(=O)n(-c3ccc(Oc4ccccc4)cc3)c3c(N)ncnc32)C1 — IC50 (LYN (Homo sapiens, UniProt P07948)): 4.59 µM
CN(C)C(=O)c1cc2cnc(Nc3ccc(-c4ccc5c(=O)cc(N6CCNCC6)oc5c4)cc3)nc2n1C1CCCC1 — IC50 (BRD4 BD1; inhibitor): > 10 µM
O=C(OCc1ccccc1)c1ccc(O)cc1 — IC50 (Histone-arginine methyltransferase CARM1 (Mus musculus, UniProt Q9WVG6); methyltransferase activity, inhibitor; with: PABP1 substrate, [3H]AdoMet): 474 µM
O=C1CCC(N2C(=O)c3cccc(NCCCCNC(=O)c4ccc(Oc5ccc(Cl)cc5NS(=O)(=O)c5ccc(Cl)c(C(F)(F)F)c5)cc4)c3C2=O)C(=O)N1 (centres unmarked) — IC50 (Protein cereblon, with DDB1 (CRBN, Homo sapiens, UniProt Q96SW2); binding, HTRF): 0.0393 µM
O=S(=O)(c1ccc(Br)c2nsnc12)N1CCOCC1 — IC50 (Histone acetyltransferase RTT109 with Vps75; enzyme activity, inhibitor, HTS, CPM-based, dose response): > 125 µM
CN(C)C(=O)c1cc2cnc(Nc3cncc(-c4cccc5c(=O)cc(N6CCOCC6)oc45)c3)nc2n1C1CCCC1 — IC50 (Bromodomain-containing protein 4, BD2 (BRD4, Homo sapiens, UniProt O60885); inhibitor): > 10 µM
O=C(Nc1cnccc1Cl)N1CCN(Cc2ccc3c(c2)OC(F)(F)O3)CC1 — IC50 (Faah (Rattus norvegicus, UniProt P97612); enzyme activity, inhibitor; rat brain membranes; 60 min preincubation): 0.0943 µM
Cc1ccc(SC2=CS(=O)(=O)c3ccccc32)cc1 — IC50 (Histone acetyltransferase RTT109 with Vps75; enzyme activity, inhibitor, HTS, CPM-based, dose response): > 125 µM
CC(=O)Nc1nnc(N2CCN([C@@H](C)c3ccc4c(c3)OCO4)CC2)s1 — IC50 (Beta-hexosaminidase subunit alpha (Homo sapiens, UniProt P06865); enzyme activity, inhibitor; top concentration 30 µM): > 30 µM
CN(C)C(=O)c1cc2cnc(Nc3cc(C(F)(F)F)c(-c4cccc5c(=O)cc(N6CCOCC6)oc45)cn3)nc2n1C1CCCC1 — IC50 (BRD4 BD1; inhibitor): 8.97 µM
CC(C)(C)c1ccc(OC2=CS(=O)(=O)c3ccccc32)cc1 — IC50 (Histone acetyltransferase RTT109 with Vps75; enzyme activity, inhibitor, HTS, CPM-based, dose response): > 125 µM
CCN(c1ccccc1)S(=O)(=O)c1ccc(Cl)c(C(=O)Nc2ccccc2N2CCN(C(C)C)C2=O)c1 — IC50 (N-myristoyltransferase (Cryptosporidium parvum, UniProt Q5CV46); enzyme activity, inhibitor): > 125 µM
Cc1cc(Nc2nnc(-c3n[nH]c4ccc(C)cc34)s2)cc([N+](=O)[O-])c1 — IC50 (thymidine phosphorylase; enzyme activity, inhibitor, spectrophotometric; pH 7.5, 25 °C): 13.2 ± 1.52 µM
C[C@@H]1O[C@H](CNS(=O)(=O)c2ccc(C#CC(C)(C)O)s2)[C@@H](O)[C@H](O)[C@@H]1O — IC50 (fucose-binding lectin LecB (Pseudomonas aeruginosa, UniProt A0A0H2ZE85)): 0.31 ± 0.16 µM
CC1(C)CC[C@]2(C(=O)O)CC[C@]3(C)C(=CC[C@@H]4[C@@]5(C)CC[C@H](O)C(C)(C)[C@@H]5CC[C@]43C)[C@@H]2C1 — IC50 (serine/threonine phosphatase Stp1; enzyme activity, inhibitor; with: pNPP): > 219 µM
CCCCCCCCCCCCNC(=S)NCCCC[C@H](NC(C)=O)C(=O)N[C@@H](C)C(=O)N[C@@H](CCCNC(=N)N)C(N)=O — IC50 (SIRT2 (Homo sapiens, UniProt Q8IXJ6); enzyme activity, inhibitor): 0.23 ± 0.05 µM
O=C(Nc1nc2ccccc2n1CCN1CCOCC1)c1cccc([N+](=O)[O-])c1 — IC50 (Receptor-like protein kinase FERONIA (FER, Arabidopsis thaliana, UniProt Q9SCZ4); enzyme activity, inhibitor): 0.215 µM
O=c1nc(SCc2cc(F)cc(C(F)(F)F)c2)nc(SCc2ccc3sccc3c2)[nH]1 — IC50 (TOP2A (Homo sapiens, UniProt P11388); ATPase activity, ATP-competitive inhibitor; with: ATP 2 mM): 8.6 µM
CC(C)c1ccc(S(=O)(=O)Nc2ccc(-c3nc4ccccc4s3)c(Cl)c2)cc1 — IC50 (Histone acetyltransferase RTT109 with Vps75; enzyme activity, inhibitor, HTS, CPM-based, dose response): > 125 µM
N#CC(=Cc1ccc(O)c([N+](=O)[O-])c1)C(=O)NCc1ccccc1 — IC50 (UCHL1; inhibitor, ubiquitin-rhodamine cleavage; 2 h preincubation): > 200 µM
Nc1ncnc2c1ncn2[C@@H]1O[C@H](COP(=O)(O)OP(=O)(O)OP(=O)(O)O)[C@@H](O)[C@H]1O — IC50 (IMPDH2 (Homo sapiens, UniProt P12268)): 45 µM
Cc1c(Cl)cccc1Nc1ccccc1C(=O)O — IC50 (D14, with SMXL7 (Arabidopsis thaliana, UniProt Q9SQR3); complex formation, inhibitor, TR-FRET; Arabidopsis thaliana, AtD14-mEGFP 100 nM; 300 min, with: (+)-GR24 and 3 µg/mL FLAG-AtSMXL7): 1.65 µM
CCOC(=O)C(=NNc1ccc(O)cc1)C(C)=O — IC50 (Glycogen synthase kinase-3 beta, with Nav1.6 (GSK3B, Homo sapiens, UniProt P49841); Nav1.6-GSK3β assembly, inhibitor, split-luciferase complementation; HEK293 cells (transfected)): 101 µM
COc1ccc(C)cc1CN1CCC(c2cc3ncccc3cn2)CC1 — IC50 (Catenin beta-1, with BCL9 HD2 (CTNNB1, Homo sapiens, UniProt P35222); BCL9 binding, inhibitor, AlphaScreen): 5.98 µM
CC(C)(C)c1nsc(N)n1 — IC50 (Histone acetyltransferase RTT109 with Vps75; enzyme activity, inhibitor, HTS, CPM-based, dose response): > 125 µM
Cc1c(N2CCOCC2)oc2c(-c3ccc(Nc4ncc5cc(C(=O)N(C)C)n(C6CCCC6)c5n4)cc3F)cccc2c1=O — IC50 (BRD4 BD1; inhibitor): > 10 µM
CC[C@@H]1[C@H](F)C(=O)N[C@@H]1COc1nccc2cc(C(N)=O)c(OC)cc12 — IC50 (TLK2 (Homo sapiens, UniProt Q86UE8); ATP-site probe binding, inhibitor, ActivX ATP probe profiling; THP-1 cell lysate; probe site Lys1): 1.8 µM
COc1cc2nccc(Oc3ccc(NC(=O)c4cc5c(n(-c6ccccc6)c4=O)CCCC5=O)nc3)c2cc1OC — IC50 (MET (Homo sapiens, UniProt P08581); cell viability, CellTiter-Glo; Ba/F3 expressing recombinant kinase; 48 h): > 0.1 µM
CC(=O)c1cc([N+](=O)[O-])c(Sc2ccc(F)cc2F)s1 — IC50 (USP10 (Homo sapiens, UniProt Q14694); deubiquitinase activity, inhibitor, MALDI-TOF DUB; 30 °C, 35 min pre-incubation): 5.97 µM
CC1=CS(=O)(=O)c2ccccc21 — IC50 (Histone acetyltransferase RTT109 with Vps75; enzyme activity, inhibitor, HTS, CPM-based, dose response): > 125 µM
Cc1cc([C@@H](C)Nc2ccccc2C(=O)O)c2nc(N3CCC(F)(F)CC3)c(C#N)c(=O)n2c1 — IC50 (Phosphatidylinositol 4,5-bisphosphate 3-kinase catalytic subunit alpha isoform, with p85 alpha (PIK3CA, Homo sapiens, UniProt P42336); ADP-Glo; with: ATP 10 µM): 1.12 µM
COc1ccc(Cc2cnc(NC(=O)CCl)s2)cc1 — IC50 (UCHL1; inhibitor, ubiquitin-rhodamine cleavage; 2 h preincubation): 91 µM
CN1CCN(c2ccc(Nc3ncc4cc(C#N)c(=O)n(C5CCCC5)c4n3)cc2)CC1 — IC50 (TEC (Homo sapiens, UniProt P42680)): 5.63 µM
Cc1c(Cl)cccc1NC(=O)N1CCCN(c2nc(-c3ccccc3)ns2)CC1 — IC50 (Histone acetyltransferase RTT109 with Vps75; enzyme activity, inhibitor, HTS, CPM-based, dose response): > 125 µM
O=C(O)c1cc(O)c2c(c1)[C@H]([C@H]1c3cc(C(=O)O)cc(O)c3C(=O)c3c(O[C@@H]4O[C@H](CO)[C@@H](O)[C@H](O)[C@H]4O)cccc31)c1cccc(O[C@@H]3O[C@H](CO)[C@@H](O)[C@H](O)[C@H]3O)c1C2=O — IC50 (serine/threonine phosphatase Stp1; phosphatase activity, inhibitor): > 74.2 µM
N=C(N/N=C/c1ccccc1)SC1CC(=O)N(c2ccc(Br)cc2)C1=O (centres unmarked) — IC50 (Histone acetyltransferase RTT109 with Vps75; enzyme activity, inhibitor, HTS, CPM-based, dose response): > 125 µM
Cc1cnc(-c2ccc(-c3ccc(NC(=O)Nc4c(F)cc(F)cc4F)cc3F)c3c2C(=O)NC3)[nH]1 — IC50 (PDGFRB (Homo sapiens, UniProt P09619); enzyme activity, inhibitor, mobility shift; with: ATP 1 mM): 0.0254 µM

Some of these lines once more:
CC#CC(=O)N1CC[C@@H](n2c(=O)n(-c3ccc(Oc4ccccc4)cc3)c3c(N)ncnc32)C1 — IC50 (LYN (Homo sapiens, UniProt P07948)): 4.59 µM
CN(C)C(=O)c1cc2cnc(Nc3ccc(-c4ccc5c(=O)cc(N6CCNCC6)oc5c4)cc3)nc2n1C1CCCC1 — IC50 (BRD4 BD1; inhibitor): > 10 µM
O=C(OCc1ccccc1)c1ccc(O)cc1 — IC50 (Histone-arginine methyltransferase CARM1 (Mus musculus, UniProt Q9WVG6); methyltransferase activity, inhibitor; with: PABP1 substrate, [3H]AdoMet): 474 µM
O=C1CCC(N2C(=O)c3cccc(NCCCCNC(=O)c4ccc(Oc5ccc(Cl)cc5NS(=O)(=O)c5ccc(Cl)c(C(F)(F)F)c5)cc4)c3C2=O)C(=O)N1 (centres unmarked) — IC50 (Protein cereblon, with DDB1 (CRBN, Homo sapiens, UniProt Q96SW2); binding, HTRF): 0.0393 µM
O=S(=O)(c1ccc(Br)c2nsnc12)N1CCOCC1 — IC50 (Histone acetyltransferase RTT109 with Vps75; enzyme activity, inhibitor, HTS, CPM-based, dose response): > 125 µM
CN(C)C(=O)c1cc2cnc(Nc3cncc(-c4cccc5c(=O)cc(N6CCOCC6)oc45)c3)nc2n1C1CCCC1 — IC50 (Bromodomain-containing protein 4, BD2 (BRD4, Homo sapiens, UniProt O60885); inhibitor): > 10 µM
